Results from different studies.
A part holds a random share of what one study measured.

Series 1
Target: Histone acetyltransferase KAT6A, both winged helices, GST fusion (KAT6A, Homo sapiens, UniProt Q92794, residues 1-181)
Technique: protein binding microarray
Molecule type: double-stranded DNA, one strand shown
Medium: in vitro
Concentration: not given
Setting: 8-mer, flanks averaged, mean of 2 arrays, mostly near background
Baseline: not given
Direction: higher = stronger binding
Construct (chain): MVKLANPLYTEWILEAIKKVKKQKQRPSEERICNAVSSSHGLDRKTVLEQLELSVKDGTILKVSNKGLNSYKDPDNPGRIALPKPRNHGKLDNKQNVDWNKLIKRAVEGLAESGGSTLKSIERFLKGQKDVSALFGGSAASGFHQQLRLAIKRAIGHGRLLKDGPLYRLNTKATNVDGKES
`CTAACGAC` has an E-score of -0.0987.
With `TACGGACA` the E-score was 0.187.
With `CGCTTTGA` the E-score was 0.111.
`GGGTTCAC` gave an E-score of 0.206.
`AACAGAGT` gave an E-score of 0.0263.
`CAGCCTGA` has an E-score of -0.108.
`TACAACTA` has an E-score of -0.0564.
For `AGCATAAT`, the E-score was 0.0923.
For `CCTTAAAC`, the E-score was -0.00213.
The E-score of `AGCATTCG` is reported as -0.121.
The E-score of `CCAGAGCG` is reported as 0.0556.
The E-score of `CAGGGGGC` is reported as -0.0317.
`ACGCCATG` gave an E-score of 0.0284.
The E-score of `AATGAATT` is reported as 0.00943.
With `GCAGAGGA` the E-score was -0.176.
For `ATGTATTA`, the E-score was 0.00343.
`AACCTCCT` has an E-score of -0.198.
The E-score of `ATGGCGTA` is reported as 0.1.
The E-score of `AGCCCAAC` is reported as -0.206.
`ACGGATAA` gave an E-score of 0.26.
With `TATTGAGA` the E-score was -0.156.
With `CCAACTAA` the E-score was -0.139.
`AGCCATAG` gave an E-score of -0.112.
`AATAATTC` has an E-score of 0.102.
For `AGCCCATG`, the E-score was -0.141.

Series 2
Target: Centromere-binding protein 1, full length, N-terminal tag (CBF1, Saccharomyces cerevisiae, UniProt P17106, residues 1-351)
UniProt P17106, sequence (whole entry, looked up): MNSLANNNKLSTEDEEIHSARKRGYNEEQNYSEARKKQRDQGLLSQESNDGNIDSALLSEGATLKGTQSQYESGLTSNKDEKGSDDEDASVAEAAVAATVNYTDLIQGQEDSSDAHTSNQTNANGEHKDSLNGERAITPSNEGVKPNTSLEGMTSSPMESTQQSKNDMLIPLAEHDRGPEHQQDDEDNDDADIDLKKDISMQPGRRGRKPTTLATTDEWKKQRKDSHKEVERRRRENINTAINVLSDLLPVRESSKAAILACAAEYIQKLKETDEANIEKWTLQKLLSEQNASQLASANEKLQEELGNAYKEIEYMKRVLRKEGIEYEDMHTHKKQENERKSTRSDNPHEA
Technique: protein-binding microarray
Molecule type: double-stranded DNA, one strand shown
Medium: in vitro
Concentration: 0.8 µM
Setting: whole 60-bp probe, no competitor
Direction: higher = stronger binding
With `GAAAGATATTACAGACGTGAGGTATCTCTTCCTTAGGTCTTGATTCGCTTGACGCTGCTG` the fluorescence intensity was 528 a.u.
For `GAAATACAATATGCGCTCGTGCTTCTTTAATGTTAGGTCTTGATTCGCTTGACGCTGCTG`, the fluorescence intensity was 795 a.u.
For `CTAAGGAAAGAAAGAAACGTGGGAAAAACAGGGTTCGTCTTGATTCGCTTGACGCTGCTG`, the fluorescence intensity was 507 a.u.
`CTATGTCGTGTCTAGCACGTGACGTAGAACTGTTTCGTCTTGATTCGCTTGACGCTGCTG` gave a fluorescence intensity of 15200 a.u.
With `CTAACAATCCAAAGTCACCTTTATTGGCGATATTTCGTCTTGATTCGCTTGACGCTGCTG` the fluorescence intensity was 515 a.u.
The fluorescence intensity of `GAATGAAATTTTTTTCTGGTGGTTGTTAGCAAATAGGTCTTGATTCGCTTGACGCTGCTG` is reported as 545 a.u.
For `CTATTGTTACCTCGTCACCTGTTATCGGTTGAATTCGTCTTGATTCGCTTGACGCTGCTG`, the fluorescence intensity was 1220 a.u.
`GAAAAGAAGTCTTTACACGTTGGCCACCGACACTAGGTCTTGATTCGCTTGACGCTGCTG` gave a fluorescence intensity of 513 a.u.
With `TGTACGAAGCTATGTCACGAGAGTATAGTAGTTAGGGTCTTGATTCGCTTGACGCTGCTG` the fluorescence intensity was 1290 a.u.
The fluorescence intensity of `GAAATTCGTTTTATCCACGTTTACCCCACAAAATAGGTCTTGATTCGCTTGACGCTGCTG` is reported as 589 a.u.
With `CTAACACCCACCCAGATCGTGATTTTTGTTACCTTCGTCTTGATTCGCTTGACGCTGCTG` the fluorescence intensity was 549 a.u.
For `CTAATTGTTGAGAATCTGGTGAAGGTTTTCTTTTTCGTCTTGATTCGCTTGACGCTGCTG`, the fluorescence intensity was 486 a.u.
The fluorescence intensity of `CTAAAAATGCCTCATGACGGTATCTGGGGTCTCTTCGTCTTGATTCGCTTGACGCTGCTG` is reported as 552 a.u.
For `GAAACCGCTTTAAATCTGATGTTCTGCGCTTTCTAGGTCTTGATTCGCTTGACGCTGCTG`, the fluorescence intensity was 522 a.u.
`GAATCGGAACGGCATGTGACGGTTTGTGCTTTTTAGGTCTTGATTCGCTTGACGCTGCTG` has a fluorescence intensity of 1240 a.u.
For `CTAAAAAAAAAAGATCACGAAAGTATCCCACGCTTCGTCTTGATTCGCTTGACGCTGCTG`, the fluorescence intensity was 565 a.u.
`GAAGGATATCCGTCACCCGTGATTCCGTCGGAGTAGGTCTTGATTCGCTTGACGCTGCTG` has a fluorescence intensity of 977 a.u.
With `GAATGTGCGAGGGCCCACGTGGCTTAATACAACTAGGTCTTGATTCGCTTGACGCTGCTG` the fluorescence intensity was 3680 a.u.
The fluorescence intensity of `GAATTACTGAAGCCTCACGTGAGGGCAATCTGGTAGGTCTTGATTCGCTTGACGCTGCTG` is reported as 7770 a.u.

Series 3
Target: RNA binding protein fox-1 homolog 2, RRM domain, GST-SBP tag (RBFOX2, Homo sapiens, UniProt O43251-10, residues 100-194)
Technique: RNA Bind-n-Seq
Molecule type: RNA
Medium: in vitro
Concentration: 365 nM
Setting: natural RNA segment, single round, ends assumed
Baseline: no-protein control
Direction: higher = stronger binding
Target sequence (chain): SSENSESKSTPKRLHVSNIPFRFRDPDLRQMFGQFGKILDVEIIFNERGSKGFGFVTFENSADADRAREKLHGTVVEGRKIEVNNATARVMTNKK
For `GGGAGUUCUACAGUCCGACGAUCCAAGUUUGAGGACCACCUUGGUGUAUAUAAGCAUGAUCUUUGUUCACACAUAAAAGAGAGAGGGAGUAUGUUUGUGUGUUUCAUGUGCAUACAUAUAUACACACUCCUAAUGGAAUUCUCGGGUGCCAA`, “RBNS enrichment (R)” read 3.22.
`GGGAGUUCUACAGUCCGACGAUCAGACACUGUGGAAGUGGGAGGGUAGCCUGGCCCUGUCUAGGAGAAAGGCCCUGCGUGGUCAGGCCUGGUUCUGUGACCUGGAAGGUGACAAGCCAUCCAUCCCCCAUGGGUGGAAUUCUCGGGUGCCAA`: “RBNS enrichment (R)” 1.36.
`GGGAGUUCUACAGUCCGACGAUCCUAUAUUGUAUAAUAUUUAAAGUUAUUUUUAAUUUUCUCAAACAAUAUGAGAAUAUCUAUCUGGCAUUAUCUAUCUGCCAAUCUCACUGUAAUAAAUUGAUUAUUUUGCCUGGAAUUCUCGGGUGCCAA`: “RBNS enrichment (R)” 1.7.
Under “RBNS enrichment (R)”, `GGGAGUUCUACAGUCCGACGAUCAUCUCGGUGCACUAGGAAGUGAAUCCCGCAGGACAGCUGCACUCAGGGAUACGCCCAACACCAUGGCCUGCAACCCCAGGGUCAAGGGUGAAGGAAAGCAAGCUCACCGCUGGAAUUCUCGGGUGCCAA` is recorded as 0.736.
Under “RBNS enrichment (R)”, `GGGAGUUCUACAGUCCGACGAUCUUAUUGCUGUUUGAAUAAUAUGAUUAAAUAGAAGGUUUGUGCCAGUAGACAUUAUGUUACUAAAUCAGCACUUUAAAAUCUUUGGUUCUCUAAUUCAUAUGAAUUUGCUGUGGAAUUCUCGGGUGCCAA` is recorded as 0.301.
`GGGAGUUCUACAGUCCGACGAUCCCUGCUCCUCAAAUUUUGAUGUGAGUGCCCCUUCCCUGCUGGGGAGAGCUGCUGCCACCGCAUCUCAAUACAACAGCACUGCAAAAUGAAGCAACAAGUCAGAAUCAAAUUGGAAUUCUCGGGUGCCAA`: “RBNS enrichment (R)” 0.259.
For `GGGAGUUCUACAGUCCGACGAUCUCUCCCCUUUCUCUCCUGUGCUCACCUUACCUUUCCAGAGUGUAAGGGACAACUUUUAAGGAGGCGUGUCCCUGGUAGGGGCAUCCCUGUUCACCAGGUGCCUGUCAUCAUGGAAUUCUCGGGUGCCAA`, “RBNS enrichment (R)” read 0.35.
Under “RBNS enrichment (R)”, `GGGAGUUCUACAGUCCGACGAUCGUAGUCUUUGGAGUCUACAAGUGACUGUCAUUUUAAGCAACUCAUUAAAUAUUGGUUCAUUUUUUUUCCAUGUUGUGGAGACACCAAGAUGAACGCAGCAUGAAUCUCAUUGGAAUUCUCGGGUGCCAA` is recorded as 5.83.

Series 4
Target: Ras GTPase-activating protein-binding protein 1, C-terminal RGG region (G3BP1, Homo sapiens, UniProt Q13283)
UniProt Q13283, sequence (whole entry, looked up): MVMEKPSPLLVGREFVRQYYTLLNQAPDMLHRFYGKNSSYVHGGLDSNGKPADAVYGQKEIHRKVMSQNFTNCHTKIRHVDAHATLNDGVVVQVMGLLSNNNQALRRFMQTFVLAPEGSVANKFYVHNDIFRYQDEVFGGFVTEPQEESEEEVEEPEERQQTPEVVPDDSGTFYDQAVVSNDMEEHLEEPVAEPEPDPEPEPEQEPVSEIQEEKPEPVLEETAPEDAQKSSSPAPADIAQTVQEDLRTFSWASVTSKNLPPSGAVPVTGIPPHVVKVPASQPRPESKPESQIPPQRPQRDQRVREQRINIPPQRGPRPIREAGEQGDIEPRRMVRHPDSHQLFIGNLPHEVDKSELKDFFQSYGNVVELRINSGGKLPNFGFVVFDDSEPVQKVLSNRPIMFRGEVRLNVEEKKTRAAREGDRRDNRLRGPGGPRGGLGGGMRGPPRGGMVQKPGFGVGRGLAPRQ
Technique: RNA Bind-n-Seq
Molecule type: RNA
Medium: in vitro
Concentration: 1 µM
Setting: whole 134-nt RNA, ends assumed
Added: 150 mM KCl
Baseline: input library
Direction: higher = stronger binding
The log2 enrichment of `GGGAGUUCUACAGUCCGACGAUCAGUCCUGUGCUACACAUCGUAUGUACCGAAUCGGGGAAAAGGGGAAAAGGGAAAAGGAAAGUAUUAUGUUACGCCGUUCGGAUCUGCACUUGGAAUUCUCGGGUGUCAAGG` is reported as -0.946.
With `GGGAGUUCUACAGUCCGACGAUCCUCAAGUCCUGUGCUACACAUCGUAUGUACCGAAUCGGUGGUGGAAAAAAAGGAAAGUAUUAUGUUACGCCGUUCGGAUCUGCACUUCCAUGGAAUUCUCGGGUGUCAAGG` the log2 enrichment was -1.07.
The log2 enrichment of `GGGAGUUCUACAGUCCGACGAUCCACAGACAACACGCACCCACACAGACACAGAGGGAGGGGGUUGGGAUGGGGACAGGGUGCACAGCAGGGCGGGGUAGGACCCCAGCCCCUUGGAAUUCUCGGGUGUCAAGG` is reported as -0.0803.
With `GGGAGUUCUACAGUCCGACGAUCCAAGUCCUGUGCUACACAUCGUAUGUACCGAAUCGGGUUUGGGUUUUUGGGUGGGAAAGUAUUAUGUUACGCCGUUCGGAUCUGCACUUCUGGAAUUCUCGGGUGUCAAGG` the log2 enrichment was 1.24.
`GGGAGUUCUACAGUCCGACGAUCAGUCCUGUGCUACACAUCGUAUGUACCGAAUCGGUUUUUGGAAAAAGGAAAAAAAGGAAAGUAUUAUGUUACGCCGUUCGGAUCUGCACUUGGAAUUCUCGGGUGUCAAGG` has a log2 enrichment of -2.
The log2 enrichment of `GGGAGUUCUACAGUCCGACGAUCGUCCUGUGCUACACAUCGUAUGUACCGAAUCGGAAAAAAGGGAAAAAAGGAAAAAAGGGAAAGUAUUAUGUUACGCCGUUCGGAUCUGCAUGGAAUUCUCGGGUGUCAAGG` is reported as -1.67.
`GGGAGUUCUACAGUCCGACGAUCUCCAGCCACUCACCGGCGAUCCAGGUCCAGAACCCCCCUGAUAAGCCGACGUAGGUCCAGAUCUCGAACUUCACCAGUCAGCCGGAGACGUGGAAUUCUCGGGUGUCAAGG` gave a log2 enrichment of -0.247.
`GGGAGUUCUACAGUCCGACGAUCCCUCAAGUCCUGUGCUACACAUCGUAUGUACCGAAUCGGUGGGGUGGGGUGGGAAAGUAUUAUGUUACGCCGUUCGGAUCUGCACUUCCAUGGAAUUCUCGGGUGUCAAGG` gave a log2 enrichment of 1.08.
The log2 enrichment of `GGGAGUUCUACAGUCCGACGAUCUGGAUGGACACCAUUAUCGUCGUGUGGCACGGGUUGACCUAAGGAAGAAGACAGAGACUUUCUCCACAAGAAGGGUUAAGUCUGGGCUGUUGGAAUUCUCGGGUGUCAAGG` is reported as 0.191.

Repeated from above (series 1):
`GGGTTCAC` gave an E-score of 0.206.
`CAGCCTGA` has an E-score of -0.108.
`AACAGAGT` gave an E-score of 0.0263.
